Measured values from different studies.
A part holds a random share of what one study measured. Values joined by “and” are separate records of one study, mostly repeats; a detail may differ.
Chain of UniProt O60674 (whole entry, looked up): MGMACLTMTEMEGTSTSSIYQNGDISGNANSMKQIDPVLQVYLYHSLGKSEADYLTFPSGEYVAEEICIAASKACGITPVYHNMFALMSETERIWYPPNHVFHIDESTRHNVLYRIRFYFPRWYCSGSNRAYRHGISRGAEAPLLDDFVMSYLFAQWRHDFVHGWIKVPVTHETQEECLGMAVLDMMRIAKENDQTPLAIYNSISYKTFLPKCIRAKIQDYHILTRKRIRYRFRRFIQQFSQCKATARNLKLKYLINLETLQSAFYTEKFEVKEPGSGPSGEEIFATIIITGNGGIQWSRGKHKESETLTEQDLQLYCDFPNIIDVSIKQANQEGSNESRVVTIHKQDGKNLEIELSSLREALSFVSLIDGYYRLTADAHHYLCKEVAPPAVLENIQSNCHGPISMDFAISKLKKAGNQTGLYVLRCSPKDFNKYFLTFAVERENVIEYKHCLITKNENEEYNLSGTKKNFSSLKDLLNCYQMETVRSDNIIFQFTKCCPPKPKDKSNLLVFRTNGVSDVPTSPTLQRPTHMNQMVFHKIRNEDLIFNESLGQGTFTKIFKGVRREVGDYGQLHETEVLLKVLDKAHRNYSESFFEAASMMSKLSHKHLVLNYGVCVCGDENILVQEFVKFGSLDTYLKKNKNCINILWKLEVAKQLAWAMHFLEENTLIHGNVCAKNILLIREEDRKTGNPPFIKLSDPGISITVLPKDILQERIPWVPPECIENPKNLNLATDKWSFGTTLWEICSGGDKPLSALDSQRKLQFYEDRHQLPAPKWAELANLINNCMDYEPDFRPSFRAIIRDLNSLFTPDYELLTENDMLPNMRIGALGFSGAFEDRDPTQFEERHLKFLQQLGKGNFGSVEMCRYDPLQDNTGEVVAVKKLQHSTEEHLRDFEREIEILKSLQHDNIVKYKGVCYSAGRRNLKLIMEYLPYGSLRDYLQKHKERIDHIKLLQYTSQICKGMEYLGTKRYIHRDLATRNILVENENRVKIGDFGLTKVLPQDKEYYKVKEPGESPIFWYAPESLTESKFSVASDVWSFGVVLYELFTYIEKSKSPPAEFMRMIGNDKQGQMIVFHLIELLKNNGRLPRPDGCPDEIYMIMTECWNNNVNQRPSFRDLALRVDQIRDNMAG
Chain of UniProt P45984 (whole entry, looked up): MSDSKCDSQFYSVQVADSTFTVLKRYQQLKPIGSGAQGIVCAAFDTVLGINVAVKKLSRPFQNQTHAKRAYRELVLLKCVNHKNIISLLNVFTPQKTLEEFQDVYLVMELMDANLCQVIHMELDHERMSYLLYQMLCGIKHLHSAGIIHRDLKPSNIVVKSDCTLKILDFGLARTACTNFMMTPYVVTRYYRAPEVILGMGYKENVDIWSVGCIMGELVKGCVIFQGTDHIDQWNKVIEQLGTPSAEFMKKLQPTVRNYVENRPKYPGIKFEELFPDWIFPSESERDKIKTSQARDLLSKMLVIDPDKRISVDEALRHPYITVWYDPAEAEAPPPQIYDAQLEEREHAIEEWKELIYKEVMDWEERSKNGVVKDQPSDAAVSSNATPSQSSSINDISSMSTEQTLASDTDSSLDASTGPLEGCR
Chain of UniProt Q14012 (whole entry, looked up): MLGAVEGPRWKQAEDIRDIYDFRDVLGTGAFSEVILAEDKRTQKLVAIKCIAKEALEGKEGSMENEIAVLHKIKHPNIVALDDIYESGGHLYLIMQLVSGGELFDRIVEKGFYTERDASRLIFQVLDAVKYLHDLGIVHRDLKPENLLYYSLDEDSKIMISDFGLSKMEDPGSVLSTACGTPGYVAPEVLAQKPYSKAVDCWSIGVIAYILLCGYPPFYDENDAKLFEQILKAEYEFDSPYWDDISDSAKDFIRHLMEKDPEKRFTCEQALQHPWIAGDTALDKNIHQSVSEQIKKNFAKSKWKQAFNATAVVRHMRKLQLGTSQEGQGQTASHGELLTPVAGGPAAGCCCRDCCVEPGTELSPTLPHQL
Chain of UniProt Q6P2M8 (whole entry, looked up): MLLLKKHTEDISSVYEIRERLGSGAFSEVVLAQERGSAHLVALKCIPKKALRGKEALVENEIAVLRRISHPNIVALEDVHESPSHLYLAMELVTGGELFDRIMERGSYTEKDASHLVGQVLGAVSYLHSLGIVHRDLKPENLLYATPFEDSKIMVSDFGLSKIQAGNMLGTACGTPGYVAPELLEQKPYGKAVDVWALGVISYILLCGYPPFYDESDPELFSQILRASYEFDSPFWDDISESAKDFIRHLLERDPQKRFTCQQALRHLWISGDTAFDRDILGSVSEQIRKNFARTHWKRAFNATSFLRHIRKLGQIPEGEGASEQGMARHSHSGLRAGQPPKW
Chain of UniProt P29317 (whole entry, looked up): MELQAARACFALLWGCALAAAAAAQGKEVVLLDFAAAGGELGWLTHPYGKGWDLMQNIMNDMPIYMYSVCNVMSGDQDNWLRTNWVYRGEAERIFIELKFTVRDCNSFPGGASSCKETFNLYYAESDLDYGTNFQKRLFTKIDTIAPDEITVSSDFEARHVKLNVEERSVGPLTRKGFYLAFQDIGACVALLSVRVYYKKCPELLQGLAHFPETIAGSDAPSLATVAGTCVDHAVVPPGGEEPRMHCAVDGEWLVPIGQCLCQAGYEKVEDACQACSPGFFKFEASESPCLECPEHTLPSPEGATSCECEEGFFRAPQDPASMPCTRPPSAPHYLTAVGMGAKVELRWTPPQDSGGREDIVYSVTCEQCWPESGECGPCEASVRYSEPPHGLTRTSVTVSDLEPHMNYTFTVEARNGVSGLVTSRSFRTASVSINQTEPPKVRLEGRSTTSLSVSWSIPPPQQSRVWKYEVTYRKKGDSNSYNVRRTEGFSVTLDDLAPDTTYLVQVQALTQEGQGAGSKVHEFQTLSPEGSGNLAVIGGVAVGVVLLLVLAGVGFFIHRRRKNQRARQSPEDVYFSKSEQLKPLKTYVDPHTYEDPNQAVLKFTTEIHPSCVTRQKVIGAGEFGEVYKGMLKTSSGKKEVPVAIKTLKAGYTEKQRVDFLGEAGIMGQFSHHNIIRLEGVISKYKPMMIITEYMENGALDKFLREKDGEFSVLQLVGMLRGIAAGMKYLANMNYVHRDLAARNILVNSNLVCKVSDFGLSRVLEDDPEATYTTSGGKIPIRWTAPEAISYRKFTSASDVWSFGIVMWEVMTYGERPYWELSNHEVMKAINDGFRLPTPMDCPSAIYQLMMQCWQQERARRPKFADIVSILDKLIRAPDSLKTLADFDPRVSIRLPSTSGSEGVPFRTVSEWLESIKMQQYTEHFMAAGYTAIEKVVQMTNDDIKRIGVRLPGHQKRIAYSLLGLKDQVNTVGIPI
Chain of UniProt O15075 (whole entry, looked up): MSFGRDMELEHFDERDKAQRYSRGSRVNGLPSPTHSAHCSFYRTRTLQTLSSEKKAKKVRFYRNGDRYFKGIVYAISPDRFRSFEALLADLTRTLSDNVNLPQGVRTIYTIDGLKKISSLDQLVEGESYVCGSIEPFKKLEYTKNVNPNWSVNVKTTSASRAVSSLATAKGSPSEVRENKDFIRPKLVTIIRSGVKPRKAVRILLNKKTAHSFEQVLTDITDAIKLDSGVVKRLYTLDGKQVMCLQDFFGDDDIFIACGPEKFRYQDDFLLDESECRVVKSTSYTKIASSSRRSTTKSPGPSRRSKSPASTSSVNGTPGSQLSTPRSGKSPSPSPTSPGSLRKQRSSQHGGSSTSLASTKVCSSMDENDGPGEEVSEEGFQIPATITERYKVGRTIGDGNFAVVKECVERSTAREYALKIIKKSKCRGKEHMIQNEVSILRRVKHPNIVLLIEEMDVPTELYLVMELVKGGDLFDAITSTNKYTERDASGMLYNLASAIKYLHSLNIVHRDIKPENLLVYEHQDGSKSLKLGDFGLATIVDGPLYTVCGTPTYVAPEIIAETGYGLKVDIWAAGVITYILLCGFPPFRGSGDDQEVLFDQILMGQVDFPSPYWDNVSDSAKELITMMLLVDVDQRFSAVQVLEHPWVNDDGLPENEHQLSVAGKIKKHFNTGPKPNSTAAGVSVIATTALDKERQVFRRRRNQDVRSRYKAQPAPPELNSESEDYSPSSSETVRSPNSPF

Series 1
Compound: O=C(NCc1ncc(C(F)(F)F)cc1Cl)c1ccc2c(c1)C1(CCS(=O)(=O)CC1)[C@H](C1CC1)N2S(=O)(=O)c1ccc(F)cc1
Read-out: cell-free assay
Technique: competition with immobilised ligand
Concentration: 1 µM
Endpoint: remaining binding
High affinity nerve growth factor receptor (NTRK1, Homo sapiens, UniProt P04629): 80%
Serine/threonine-protein kinase 4 (STK4, Homo sapiens, UniProt Q13043): 87%
Mitogen-activated protein kinase kinase kinase 14 (MAP3K14, Homo sapiens, UniProt Q99558): 100%
Serine/threonine-protein kinase ULK1 (ULK1, Homo sapiens, UniProt O75385): 90%
Tyrosine-protein kinase JAK2, JH1 (JAK2, Homo sapiens, UniProt O60674): 80%
Mitogen-activated protein kinase 9 (MAPK9, Homo sapiens, UniProt P45984): 76%
Calcium/calmodulin-dependent protein kinase type 1 (CAMK1, Homo sapiens, UniProt Q14012): 84%
Ephrin type-A receptor 2 (EPHA2, Homo sapiens, UniProt P29317): 100%
Serine/threonine-protein kinase DCLK1 (DCLK1, Homo sapiens, UniProt O15075): 83%
Mitogen-activated protein kinase 6 (MAPK6, Homo sapiens, UniProt Q16659): 87%
Calcium/calmodulin-dependent protein kinase type 1B (PNCK, Homo sapiens, UniProt Q6P2M8): 91%
Epithelial discoidin domain-containing receptor 1 (DDR1, Homo sapiens, UniProt Q08345): 100%
Ephrin type-B receptor 6 (EPHB6, Homo sapiens, UniProt O15197): 80%

Series 2
Target: Platelet-derived growth factor receptor alpha (PDGFRA, Homo sapiens, UniProt P16234)
Chain of UniProt P16234 (whole entry, looked up): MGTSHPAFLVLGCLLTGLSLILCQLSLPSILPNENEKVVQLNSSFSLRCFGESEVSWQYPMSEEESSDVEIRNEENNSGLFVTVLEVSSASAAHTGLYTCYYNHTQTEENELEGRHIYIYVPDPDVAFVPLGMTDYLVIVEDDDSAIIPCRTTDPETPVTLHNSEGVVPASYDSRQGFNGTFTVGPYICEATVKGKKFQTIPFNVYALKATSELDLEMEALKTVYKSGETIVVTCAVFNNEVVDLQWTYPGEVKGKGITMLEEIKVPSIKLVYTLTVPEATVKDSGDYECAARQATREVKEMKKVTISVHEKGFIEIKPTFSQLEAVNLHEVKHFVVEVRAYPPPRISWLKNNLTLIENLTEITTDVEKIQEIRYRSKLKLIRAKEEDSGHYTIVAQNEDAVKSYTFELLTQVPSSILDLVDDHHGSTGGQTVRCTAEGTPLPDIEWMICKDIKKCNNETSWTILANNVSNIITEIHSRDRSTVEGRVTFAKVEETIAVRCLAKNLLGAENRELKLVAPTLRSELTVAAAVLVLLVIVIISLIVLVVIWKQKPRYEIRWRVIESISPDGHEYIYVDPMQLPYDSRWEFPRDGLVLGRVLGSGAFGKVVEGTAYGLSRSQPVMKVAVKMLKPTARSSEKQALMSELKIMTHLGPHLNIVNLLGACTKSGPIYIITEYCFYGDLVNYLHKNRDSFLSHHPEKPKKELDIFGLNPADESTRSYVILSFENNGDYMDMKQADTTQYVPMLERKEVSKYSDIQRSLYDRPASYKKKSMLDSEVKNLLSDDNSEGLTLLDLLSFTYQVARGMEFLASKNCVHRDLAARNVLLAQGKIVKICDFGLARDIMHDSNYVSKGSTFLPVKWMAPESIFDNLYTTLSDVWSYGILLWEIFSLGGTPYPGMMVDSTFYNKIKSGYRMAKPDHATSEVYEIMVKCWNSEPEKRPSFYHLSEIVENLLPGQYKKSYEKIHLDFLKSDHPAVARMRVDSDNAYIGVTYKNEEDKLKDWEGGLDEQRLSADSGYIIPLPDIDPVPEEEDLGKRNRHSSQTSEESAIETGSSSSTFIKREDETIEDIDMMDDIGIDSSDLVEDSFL
Read-out: enzyme activity
Action: inhibitor
Concentration: 0.5 µM
Baseline: control
Endpoint: remaining activity
CC(C)[C@H](CO)Nc1nc(Nc2cccc(Cl)c2)c2ncn(C(C)C)c2n1: 96.9%
O=c1cc(N2CCOCC2)oc2c1ccc1ccccc12: 83.9%
COc1ccc(Cl)cc1NC(=O)Nc1cc(C)nc2ccccc12: 88.5%
COc1cc2ncc(-c3ccccc3)nc2cc1OC: 83.1%
COc1ccc(-c2cnc3c(-c4ccsc4)cnn3c2)cc1: 74.8%
COc1cc2ncnc(Nc3ccc(OCc4ccccc4)cc3)c2cc1OC: 91.3%
CCOc1cc2ncnc(Nc3cccc(Br)c3)c2cc1OCC: 84.7%
CCC(=O)Nc1ccc2ncnc(Nc3cccc(Br)c3)c2c1: 107%
Nc1[nH]nc2nnc(-c3c(-c4ccccc4)nn4ccccc34)cc12: 99.7%
Cn1cc(/C=C2\C(=O)Nc3ccc(S(N)(=O)=O)cc32)c2ccccc21: 81%

Mixed results
CC(=O)N[C@@H](Cc1c[nH]c2ccccc12)C(=O)N[C@@H](CCC(=O)C=[N+]=[N-])C(=O)OC(C)C
sedoheptulose 7-phosphate level (UPLC-MS/MS; EL4 tumor, C57BL/6 CES1-/- mice, tumor; subcutaneous, 0.3 mg/kg DON equivalent daily, 5 days; higher = more metabolite): 1.4e+06 a.u. and 1.44e+06 a.u. and 1.39e+06 a.u. and 1.6e+06 a.u. and 1.26e+06 a.u. and 1.86e+06 a.u.

CCOC(=O)CN(C(=O)c1ccn2ncc(-c3ccc(C(=O)NC)cc3)c2c1)c1ccc(Cl)cc1
plasma concentration (C57BL/6 IFN-γ knockout mouse, female, plasma; oral, 10 mg/kg, 4 h): 0.115 µM

COc1ccc([C@]23[C@H](c4ccccc4)C[C@@H](O)[C@@]2(O)c2c(F)cccc2N3C)cc1
fluorescence polarization change (Eukaryotic initiation factor 4A-III (Homo sapiens, UniProt P38919); RNA clamping, fluorescence polarization; concentration not given, mean of two replicates, added: FAM-labelled poly r(AG)8 RNA): 6 mP

Some of these lines once more (mixed results):
CC(=O)N[C@@H](Cc1c[nH]c2ccccc12)C(=O)N[C@@H](CCC(=O)C=[N+]=[N-])C(=O)OC(C)C
sedoheptulose 7-phosphate level (UPLC-MS/MS; EL4 tumor, C57BL/6 CES1-/- mice, tumor; subcutaneous, 0.3 mg/kg DON equivalent daily, 5 days; higher = more metabolite): 1.4e+06 a.u. and 1.44e+06 a.u. and 1.39e+06 a.u. and 1.6e+06 a.u. and 1.26e+06 a.u. and 1.86e+06 a.u.

CCOC(=O)CN(C(=O)c1ccn2ncc(-c3ccc(C(=O)NC)cc3)c2c1)c1ccc(Cl)cc1
plasma concentration (C57BL/6 IFN-γ knockout mouse, female, plasma; oral, 10 mg/kg, 4 h): 0.115 µM

COc1ccc([C@]23[C@H](c4ccccc4)C[C@@H](O)[C@@]2(O)c2c(F)cccc2N3C)cc1
fluorescence polarization change (Eukaryotic initiation factor 4A-III (Homo sapiens, UniProt P38919); RNA clamping, fluorescence polarization; concentration not given, mean of two replicates, added: FAM-labelled poly r(AG)8 RNA): 6 mP
